Measured values of several laboratories.
A part holds a random share of what one study measured. Positions count from the first letter of the parent shown.

Study 1 — method: DHFR PCA, deep sequencing; matrix: yeast; with: (+)-ABA 17 µM; baseline: wild-type fitted maximum; direction: higher = stronger binding
Target: ABI1, truncated, D143A, DHFR fusion (Arabidopsis thaliana)
Notes: methotrexate growth selection, single substitutions
Starting sequence: PYL1, truncated, DHFR fusion (Arabidopsis thaliana); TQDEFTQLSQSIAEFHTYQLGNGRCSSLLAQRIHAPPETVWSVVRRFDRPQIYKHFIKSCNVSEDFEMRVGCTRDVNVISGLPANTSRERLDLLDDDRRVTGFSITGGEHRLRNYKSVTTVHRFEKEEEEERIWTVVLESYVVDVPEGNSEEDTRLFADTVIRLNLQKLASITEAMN
Under “relative binding score”, `C60N` is recorded as 3.45%.
For `T6L`, “relative binding score” read 79%.
`V78T` — result for “relative binding score”: 55.9%.
`F103G`: “relative binding score” -11%.
`H122V`: “relative binding score” 12%.
`V40E`: “relative binding score” -41.7%.
For `R46C`, “relative binding score” read 63.9%.
For `F15A`, “relative binding score” read 0.438%.
For `E67K`, “relative binding score” read 82.7%.
For `R49C`, “relative binding score” read 80.3%.
For `P146R`, “relative binding score” read 0.149%.
`D48Y` — result for “relative binding score”: 13.2%.

Study 2 — method: RNA Bind-n-Seq; form: RNA; matrix: in vitro; concentration: not given; baseline: input RNA pool; direction: higher = stronger binding
Target: RING finger protein unkempt homolog, zinc fingers 1-6, GST-SBP tag (UNK, Homo sapiens, UniProt Q9C0B0, residues 30-357)
UniProt Q9C0B0, sequence (30-357, looked up): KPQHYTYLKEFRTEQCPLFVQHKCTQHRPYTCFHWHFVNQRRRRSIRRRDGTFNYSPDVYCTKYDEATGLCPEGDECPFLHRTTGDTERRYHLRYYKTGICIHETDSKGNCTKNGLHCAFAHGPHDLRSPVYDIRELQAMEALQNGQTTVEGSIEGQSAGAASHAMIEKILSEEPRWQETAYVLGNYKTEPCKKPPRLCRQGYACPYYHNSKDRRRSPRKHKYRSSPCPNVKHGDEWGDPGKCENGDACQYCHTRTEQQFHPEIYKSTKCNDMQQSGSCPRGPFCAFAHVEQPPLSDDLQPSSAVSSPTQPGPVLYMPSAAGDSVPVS
Notes: RNA with constant flanks, human-mouse chimeric sites, ends assumed
Shared flanks, not repeated: GGGAGUUCUACAGUCCGACGAUC … CAACAGAGGAUUGAGCAUCA
For `GGUGGGGUGGUCAUUGCCGUUUGAGCUGCUGAUUUUCAUGAGUCGCCUUCAAAACUCUCGUGUAGGGUUGACAAUGUAAGGGGUGGGGGGAUCCAGCUAUUUUUUUUAUUUUCAAGUCCA`, the bound/input enrichment was 2.75 ratio.
For `AAAGAACUACUGAGGCAAGGCAGCAAAUUUAGGAGAGACAUUUCAACAAUAUUGAUAGAGUUAGGAUUCCAAAUUAAAAAAAAAACUAAAAGAUUGUACAUCAACAAAGCCAAUGUGUGG`, the bound/input enrichment was 11.1 ratio.
For `CGGAGCCCUCCUCUCCCCCAGGCCCGAGAUAUAACCCACCAGUGCCUUUUGUCUUCCUGUCAGCUCUAAUCAAUCAUCCUGUCCUCUCACGCCCACACCAAGUGCCCAAAGUGGGGAGGG`, the bound/input enrichment was 0.65 ratio.
The bound/input enrichment of `AUUGUUGAAGCUAACCCACUUUUAGAAGCAUUUGGAAAUGCAAAGACUGUUCGCAACAAUAAUAGCAGUCGAUUUGGAAAAUUUGUAGAAAUUCAUUUCAAUGAAAAGAGCUCAGUUGUU` is reported as 0.563 ratio.
For `CUCGGCACCGGCACGCUUUACAUCGCGGAGAGCCGCCUGUCCUGGUUAGAUGGUUCGGGAUUAGGAUUCUCACUGGAAUACCCCACCAUUAGUUUACAUGCAUUAUCCAGGGAUCCAAAC`, the bound/input enrichment was 1.82 ratio.
For `GCUCCUCCCCGCUCUGCAGCCUGGGGACUUUUGGCAAGGACCAGAAUCCAGCUUUCUUUUAAAACUCUCAGUGUAACUUCUUUUUCUGACAUUUCAUUUUUUUUAAAUAGUGUAUUUUUU`, the bound/input enrichment was 4.46 ratio.
For `CUGUGCGGGUGACUGUCCUGGAGUGGCCGUGUCACCGGCCGGAGCGCGGCCAGACUAAUUUUAGAAAAUGCCAAGUAGGAAGUUUGUUGAGGGUGAAGUGGUCAGAGGCCGAUGGCCUGG`, the bound/input enrichment was 2.1 ratio.
With `ACCAUUUUCGCGGUUCAGGCUUUGUGUGUAGUUCACUCUAUGUAUUAAAUUAUUAUUCUGCUUAGCUUAUAAUAAGGAUAAUUGCAUGAUUUAAGUAUACUGAAUGUUACUCUGAAACUU` the bound/input enrichment was 0.513 ratio.

Study 3 — method: protein binding microarray; form: double-stranded DNA, one strand shown; matrix: in vitro; concentration: not given; baseline: not given; direction: higher = stronger binding
Target: Histone acetyltransferase KAT6A, both winged helices, GST fusion (KAT6A, Homo sapiens, UniProt Q92794, residues 1-181)
Notes: 8-mer, flanks averaged, mean of 2 arrays, mostly near background
Residues (chain): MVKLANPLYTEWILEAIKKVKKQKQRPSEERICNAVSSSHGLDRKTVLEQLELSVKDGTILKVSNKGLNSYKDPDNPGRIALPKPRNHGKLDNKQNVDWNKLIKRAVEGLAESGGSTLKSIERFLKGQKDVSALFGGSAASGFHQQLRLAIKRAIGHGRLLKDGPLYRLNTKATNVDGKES
`GTTCATCA` gave an E-score of -0.0362.
With `CCACTTAA` the E-score was -0.133.
`ATTAACGG` has an E-score of 0.196.
The E-score of `ATCTGATG` is reported as -0.157.
With `AGTCCCAA` the E-score was -0.265.
`ACCAGCCA` has an E-score of -0.263.
For `CGCATATA`, the E-score was 0.145.
`ACAAGTCA` has an E-score of 0.013.
With `CGATATAC` the E-score was 0.0516.
With `CCAGCCCC` the E-score was -0.128.
The E-score of `CCAGTCAA` is reported as -0.167.
For `CGCAGTGC`, the E-score was 0.207.
`CCGAAGCG` has an E-score of 0.225.
With `CCTGTCCC` the E-score was -0.0844.
`GGGACTTA` has an E-score of -0.111.
For `AGTTGGAA`, the E-score was -0.0805.
`AGAATTCG` gave an E-score of -0.0897.
`AAGCCCTA` has an E-score of -0.13.
The E-score of `ATTTTCTA` is reported as -0.198.
For `ACTAATAC`, the E-score was 0.0574.
With `CCATTTCC` the E-score was 0.0463.
`AGGTAGTG` gave an E-score of -0.0991.
The E-score of `AGCATGTC` is reported as 0.0271.
`GAGTTTCA` has an E-score of -0.0627.
With `AATAGCGA` the E-score was 0.0463.

Study 4 — method: RNA Bind-n-Seq; form: RNA; matrix: in vitro; concentration: 365 nM; baseline: no-protein control; direction: higher = stronger binding
Target: RNA binding protein fox-1 homolog 2, RRM domain, GST-SBP tag (RBFOX2, Homo sapiens, UniProt O43251-10, residues 100-194)
Notes: natural RNA segment, single round, ends assumed
Shared flanks, not repeated: GGGAGUUCUACAGUCCGACGAUC … UGGAAUUCUCGGGUGCCAA
Construct (chain): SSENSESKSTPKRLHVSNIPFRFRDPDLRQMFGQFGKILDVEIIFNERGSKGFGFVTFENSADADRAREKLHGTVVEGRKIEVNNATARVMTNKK
`UAUUUGAGUUUAUACAGACCUAAAUUUUAAAAUCUGUACAUAUAUUAUUUUGAUGUAUUAAGAUGAAUAUUGCUGAUUUAAAUUUUAUUUAUGCACAUACUUAAAGGACA`: “RBNS enrichment (R)” 0.517.
`CCAGACAACUGCCAACGUCACUGAGGGCCCUGCUCUGAAGCCCUGGGCCCUGGCUCCAUUAACCUAAAUGUAGCUCCUUAGCGCUAAUCUAGGAACCGCCGCUGCCUGCU`: “RBNS enrichment (R)” 0.348.
`GUUCCUAGAACAUUCACUGUGCCUUUGCCUGCUUGCUGGCUGCAGCCUCAGAAGGAAAGCCAGGGGCAAGCAAAGGAGACCAAAAUUUCUUGGGGAAGAUUUUUCACGCA` — result for “RBNS enrichment (R)”: 1.2.
`CAAAUUGACGUGGAUUCAUGCCACAUGGAAAUCUUUAAUUUAUUUGUUGAGGUACCAUAUAGCCAGGGUGCUAGGUGAUGAGUGGUGUUAGCAUGUGCAAUAGGAACUAC`: “RBNS enrichment (R)” 5.35.
For `CCCCAGGCUCCUCCUCCAAAUGCCAGCUGUGCCCACAAGCUGUUCUUAGGGCUCACACUCGCCUUUUGGCGCGUGGUGGGUUUUUGGUAGUGCAGAAAGAAUCCAGGGAU`, “RBNS enrichment (R)” read 0.268.
`CAGGGAUUGUGCUUCAUUCCAAUCUAUUGCUUCACCAUGGCCUUAUGAGGCAGGUGAGAGAUGUUUGAAUUUUUCUCUUCCUUUUAGUAUUCUUAGUUGUUCAGUUGCCA` — result for “RBNS enrichment (R)”: 9.43.
`CAGCCUGCUGGCUCCAGAAAAAAGGUCUUGGUAGGCAUUAGUCUAUCCUAGGUGCCCCCAGUGCACUGUCCUUGUCUGUCUGAAGCACCCAUCUCUACCUUCCCUGGCCA` — result for “RBNS enrichment (R)”: 0.35.
For `UACAUAAAUGAGUUGAUGAUAUUUAACCAGUUUUUAUAAACUUCAUUUAGGUCUCUAAACACAGACUUUUUAAAUUGCAACUGUAAAUAUGAAAUGGUCAUCACAUCUGA`, “RBNS enrichment (R)” read 0.331.

Single results of other studies
`STTRRRLFVENDS`: “Cln2-subtracted enrichment score” 0.532 (human cyclin B1; cyclin docking binding, deep mutational scanning; peptide, yeast cyclin B1-Cln2 system; direction not given).

For quick reference, copied from above (study 1):
For `R49C`, “relative binding score” read 80.3%.
`F103G`: “relative binding score” -11%.
`V40E`: “relative binding score” -41.7%.
`H122V`: “relative binding score” 12%.
`D48Y` — result for “relative binding score”: 13.2%.
For `F15A`, “relative binding score” read 0.438%.
